Measured values from different studies.
Numbered parts are unrelated; each lists some results of a single study.

Sample 1 — method: RNA Bind-n-Seq; molecule type: RNA; sample: in vitro; concentration: 200 nM; setting: whole 134-nt RNA, ends assumed; together with: 150 mM LiCl; relative to: input library; direction: higher = stronger binding; each molecule: 7-deaza-guanosine replaces G
Target: Fragile X messenger ribonucleoprotein 1, C-terminal low-complexity region (Fmr1, Mus musculus, UniProt P35922)
With `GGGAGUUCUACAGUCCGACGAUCUCCUCAAGUCCUGUGCUACACAUCGUAUGUACCGAAUCGGGUGGUGGGUGGGAAAGUAUUAUGUUACGCCGUUCGGAUCUGCACUUCCAGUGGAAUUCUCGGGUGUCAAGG` the log2 enrichment was 0.787.
For `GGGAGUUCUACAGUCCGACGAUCGCAGGAAGUAAAAACAAAUGGAAAUGAUUCGGAUAGUGGCAGGGGUGGGGGUUGCUAAGGAAAGGGUGGGAUGGGAGUGGGUAAAGAGUUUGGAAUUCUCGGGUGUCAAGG`, the log2 enrichment was 1.43.
With `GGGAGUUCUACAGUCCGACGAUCAAGUCCUGUGCUACACAUCGUAUGUACCGAAUCGGGGAAAAAGGGGUGGGGAGGGGAAAGUAUUAUGUUACGCCGUUCGGAUCUGCACUUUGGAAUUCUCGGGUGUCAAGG` the log2 enrichment was -0.199.
For `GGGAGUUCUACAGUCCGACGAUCUGGCCCUGGUGGCAUGCGGGGAGGAAGAGGUGGCCUCAUGGAUCGUGGUGGUCCCGGUGGAAUGUUCAGAGGUAGCCGUGGUGGAGACAGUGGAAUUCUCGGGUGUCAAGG`, the log2 enrichment was -0.47.
`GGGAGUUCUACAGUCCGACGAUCCAAGUCCUGUGCUACACAUCGUAUGUACCGAAUCGGAAAAAAAGGUGGUUUUUGGAAAGUAUUAUGUUACGCCGUUCGGAUCUGCACUUCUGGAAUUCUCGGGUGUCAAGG` has a log2 enrichment of -1.76.
For `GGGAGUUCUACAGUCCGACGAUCCCUCAAGUCCUGUGCUACACAUCGUAUGUACCGAAUCGGGUGGGUGGGUGGGGAAAGUAUUAUGUUACGCCGUUCGGAUCUGCACUUCCAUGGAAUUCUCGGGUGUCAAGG`, the log2 enrichment was -0.491.
With `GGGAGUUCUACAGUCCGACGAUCUCAAGUCCUGUGCUACACAUCGUAUGUACCGAAUCGGAAAAAGGUUUGGAAAGGAAAGUAUUAUGUUACGCCGUUCGGAUCUGCACUUCCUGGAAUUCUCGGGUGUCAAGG` the log2 enrichment was -1.31.
For `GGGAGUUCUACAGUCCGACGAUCAAGUCCUGUGCUACACAUCGUAUGUACCGAAUCAAACCCAAAUUUUUAAACCCAAAAAAGUAUUAUGUUACGCCGUUCGGAUCUGCACUUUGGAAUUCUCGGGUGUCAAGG`, the log2 enrichment was 0.182.

Sample 2 — method: RNA Bind-n-Seq; molecule type: RNA; sample: in vitro; concentration: 365 nM; relative to: no-protein control; direction: higher = stronger binding
Target: RNA binding protein fox-1 homolog 2, RRM domain, GST-SBP tag (RBFOX2, Homo sapiens, UniProt O43251-10, residues 100-194)
Setting: natural RNA segment, single round, ends assumed
Construct (chain): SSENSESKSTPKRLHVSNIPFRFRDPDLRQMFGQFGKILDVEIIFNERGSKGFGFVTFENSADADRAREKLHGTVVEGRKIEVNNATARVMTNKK
Under “RBNS enrichment (R)”, `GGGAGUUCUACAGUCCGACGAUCCCUCGGACCCGUUCCCAGGAGGUGCAGGGGCCCAGCAAUAAACGGCGAAAGGGGCCUUGGCUCUUGCCCUGUGGCAGUGACCUUGGGGUCCGUACUAUGCCCAGGUGUCAUGGAAUUCUCGGGUGCCAA` is recorded as 0.28.
`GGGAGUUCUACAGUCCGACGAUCAUCUCAAUUGAAAGCUUUUAAAAUGUAGAAACUUAAACACACCUUCCUGUGGAGGCUGAGAUGAAAACUAGGGCUCAUUUUCCUGACAUUUGUUUAUUUUUUGGAAGAGAUGGAAUUCUCGGGUGCCAA` — result for “RBNS enrichment (R)”: 0.387.
`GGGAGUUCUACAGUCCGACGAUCCACUAGUGAUCACUCUUCAGAGAGUGACUCUCGGGAAAACUGAGAGAAAUGGCUUCCGGAUGAGAUGGACCUGACUGGGGAAACACCUUUGAGCUUGUAACCUAGCAGCUUGGAAUUCUCGGGUGCCAA` — result for “RBNS enrichment (R)”: 0.3.
`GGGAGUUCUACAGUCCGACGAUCAAUCUUGGCAUGUGCACAUUCCUCAGAGGUACCAGGUAUUCCCAGCCAUGCAUCUCUGUGGGAAGAUAGAAGAAUCUCAUGCUCUGCAGUUACAUAGGUAGCAAGGGUUUUGGAAUUCUCGGGUGCCAA`: “RBNS enrichment (R)” 0.567.
`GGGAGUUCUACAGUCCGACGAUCGCCUGGGUUACAUAGGAAAUGCACCCUGAGGUUUUAAUAAAAGCCCCUAUGGCUAUAACUUUAAAUAAACUAAACCAAAAAUGUUAUUGAUGUUUUAUAUAUAGAGAGUAUGGAAUUCUCGGGUGCCAA` — result for “RBNS enrichment (R)”: 0.87.
Under “RBNS enrichment (R)”, `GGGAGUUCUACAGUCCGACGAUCGAGAAAGAGAGUCUGGGCUGUGACCGAGUGCAUGUGUCCCACCCAGCCGGAAGGCCAGCGCCUGGGAUGGAGCCAGCAGAACCCCAUGCCGAGGUCCAGGAGGCCUUGCCUGGAAUUCUCGGGUGCCAA` is recorded as 5.38.
`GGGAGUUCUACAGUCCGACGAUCGGCCCUGCUAGCGAGAGAGGUCAACCCCGGUGGCCAGGGAACCCACUUCCAAGCGCAGGGACGCCGGCCUCCAGCUGGUGUGUGCUAAGGCUCCGUCCUGACUGCCCUGUUGGAAUUCUCGGGUGCCAA` — result for “RBNS enrichment (R)”: 0.516.
Under “RBNS enrichment (R)”, `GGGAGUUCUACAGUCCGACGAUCCAGCUCAUGCUUUUUUAUGUAGGACUAGCUUACCUGAUUUUAAUGAAAAUCACAUUUUGAUACAAACACCAGAUUUGAAAGUUCAAUGUGUUUGAUCUCAGGAGUCCAAAUGGAAUUCUCGGGUGCCAA` is recorded as 0.35.

Sample 3 — method: protein-binding microarray; molecule type: double-stranded DNA, one strand shown; sample: in vitro; concentration: 250 nM; setting: 60-bp whole probe; together with: salmon DNA 0.4 mg/ml; relative to: random background probes; direction: higher = stronger binding; constant ends, left off below: GCCTAGCAC … GTCTTGATTCGCTTGACGCTGCTG
Target: Interferon regulatory factor 5, full length, phosphomimetic (IRF5, Homo sapiens, UniProt Q13568-2, residues 1-514, K96S/S451D/S453D/S456D/S462D)
`TCACTTCTCCTCTAGGTTACTGTGCTA` gave a log fluorescence of 0.538 z-score.
With `TTAAGACTGGGGTATCGGTTAGTGCTA` the log fluorescence was 2.67 z-score.
`TTAGGTATCCTACTGTTTTAGTGCTAG` has a log fluorescence of 0.211 z-score.
`GACGATATCAGGCTGGAGACGTGCTAG` gave a log fluorescence of 0.156 z-score.
The log fluorescence of `ATGAGTCTCAATATTAGAGTGTGCTAG` is reported as 0.239 z-score.
For `TGAAGTTTTAATAACACAGAGTGCTAG`, the log fluorescence was 0.174 z-score.
With `TACGGTTTCCTTATCCTGACGTGCTAG` the log fluorescence was 1.13 z-score.
With `GACGGACTGGGGTTACGGGACGTGCTA` the log fluorescence was -0.633 z-score.
With `TGAGAACTGAGTCTCGATTAGTGCTAG` the log fluorescence was 0.528 z-score.
With `GACGGTCTCCCTCTCCTGACGTGCTAG` the log fluorescence was -0.289 z-score.
`TTAGGTCTCGGTATCGGTTAGTGCTAG` gave a log fluorescence of 5.44 z-score.
For `ATGTATACACACTATAGTGAAGTGCTA`, the log fluorescence was 0.504 z-score.
`GGATGAAGCGCTTCTCGAGTGGTGCTA` has a log fluorescence of -0.301 z-score.
`GACGATATCAGGTATCGAGACGTGCTA` has a log fluorescence of 1.83 z-score.
`GACGGTTTCCTTTTCCTGTCGTGCTAG` has a log fluorescence of 1.77 z-score.
With `TCATTTTCATTGTTTTTCACTGTGCTA` the log fluorescence was 3.91 z-score.
`GACGATCTCAGACTGTAGACGTGCTAG` gave a log fluorescence of -0.378 z-score.
For `TTAGGACTGGGTATCGCTTAGTGCTAG`, the log fluorescence was 0.582 z-score.
`TTAGGTATCGGGTATAGGTTAGTGCTA` has a log fluorescence of 3.8 z-score.

Sample 4 — method: universal PBM; molecule type: double-stranded DNA, one strand shown; sample: in vitro; concentration: 600 nM; direction: higher = stronger binding
Target: Sal-like protein 4, full length isoform A (SALL4, Homo sapiens, UniProt Q9UJQ4, residues 1-1053)
Sequence of UniProt Q9UJQ4 (whole entry, looked up): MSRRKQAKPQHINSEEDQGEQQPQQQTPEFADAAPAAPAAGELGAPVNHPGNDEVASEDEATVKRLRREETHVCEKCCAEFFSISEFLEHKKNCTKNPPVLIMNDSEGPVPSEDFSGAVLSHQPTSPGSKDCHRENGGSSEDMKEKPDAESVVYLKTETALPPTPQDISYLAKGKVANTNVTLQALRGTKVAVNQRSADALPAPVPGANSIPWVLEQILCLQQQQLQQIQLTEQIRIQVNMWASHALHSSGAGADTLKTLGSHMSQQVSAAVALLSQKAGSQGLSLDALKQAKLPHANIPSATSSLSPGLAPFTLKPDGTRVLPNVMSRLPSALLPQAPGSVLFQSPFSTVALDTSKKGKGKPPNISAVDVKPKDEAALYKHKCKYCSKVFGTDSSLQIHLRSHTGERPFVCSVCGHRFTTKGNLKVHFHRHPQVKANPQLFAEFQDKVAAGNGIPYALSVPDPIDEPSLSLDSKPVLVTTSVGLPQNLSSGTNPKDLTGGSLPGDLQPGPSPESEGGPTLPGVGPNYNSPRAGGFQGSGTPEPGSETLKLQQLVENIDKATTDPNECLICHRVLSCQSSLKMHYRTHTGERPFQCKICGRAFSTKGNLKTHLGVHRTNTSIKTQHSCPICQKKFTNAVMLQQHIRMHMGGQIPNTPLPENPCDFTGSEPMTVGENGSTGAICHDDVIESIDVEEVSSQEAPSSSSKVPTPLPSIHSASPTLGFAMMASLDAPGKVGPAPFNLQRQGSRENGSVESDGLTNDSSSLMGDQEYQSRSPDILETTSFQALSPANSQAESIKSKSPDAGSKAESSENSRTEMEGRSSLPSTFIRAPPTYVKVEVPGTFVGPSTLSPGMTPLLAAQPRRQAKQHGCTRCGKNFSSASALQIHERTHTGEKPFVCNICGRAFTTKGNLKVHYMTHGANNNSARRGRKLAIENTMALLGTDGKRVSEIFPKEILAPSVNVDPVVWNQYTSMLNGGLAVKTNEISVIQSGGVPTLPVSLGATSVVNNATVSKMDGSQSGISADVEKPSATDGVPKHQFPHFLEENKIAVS
Setting: 8-mer, flanks averaged, mean of replicates
With `CCGGGAAC` the E-score was -0.244.
For `AGGTGGCC`, the E-score was -0.272.
With `ACACCGCG` the E-score was -0.36.
The E-score of `TTAAGTAA` is reported as 0.21.
With `GATATCGC` the E-score was 0.188.
`AATGGTCG` gave an E-score of -0.034.
For `CCACAGCG`, the E-score was -0.212.
`GTGGGGAA` has an E-score of -0.00611.
For `TACCATCA`, the E-score was -0.00588.
`GTCACGTA` gave an E-score of 0.0313.
The E-score of `AGCCTCAG` is reported as -0.219.
For `CCCGGGTA`, the E-score was -0.322.
The E-score of `AGGCGCAG` is reported as -0.338.
`CAGGCCAG` gave an E-score of -0.257.
The E-score of `ATTCATCA` is reported as 0.308.
The E-score of `ATAATGGG` is reported as 0.26.
The E-score of `CGACGCAC` is reported as -0.0445.
With `GTCCAGTA` the E-score was -0.0445.
`ACCAAAAG` gave an E-score of 0.197.
The E-score of `TTCCAAAA` is reported as 0.287.
`CCGCACAC` has an E-score of -0.193.
`TAAACCGA` gave an E-score of 0.129.
For `GCAAGACC`, the E-score was -0.153.
With `ACCGACCT` the E-score was -0.187.
`TAACTCTA` has an E-score of 0.134.
